# Assay results of several laboratories.
# Every numbered part comes from another study and shows a few of its results, in no order. Positions count from the first letter of the parent shown.

# Study 1 — target: CREBL2, bZIP domain (human); method: DHFR protein complementation; matrix: yeast; reference: wild-type JUN-FOS pair; reading: higher = stronger binding
# Setting: single substitutions, most at no-binding floor
# Parent: JUN, bZIP domain (human); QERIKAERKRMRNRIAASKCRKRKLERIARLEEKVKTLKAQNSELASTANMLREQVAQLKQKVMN; partner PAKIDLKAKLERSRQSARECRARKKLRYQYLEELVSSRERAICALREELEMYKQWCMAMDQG
Change,binding fitness
T48L,-1.41 natural log
K36E,-1.25 natural log
A57N,-1.52 natural log
I28Q,-1.46 natural log
I28V,-1.21 natural log
A46G,-1.37 natural log
Q41V,-1.32 natural log
E33N,-1.59 natural log

# Study 2 — method: RNA Bind-n-Seq; form: RNA; matrix: in vitro; tested at: 365 nM; reference: no-protein control; reading: higher = stronger binding
# Target: RNA binding protein fox-1 homolog 2, RRM domain, GST-SBP tag (RBFOX2, Homo sapiens, UniProt O43251-10, residues 100-194)
# Setting: natural RNA segment, single round, ends assumed
# Constant ends, left off below: GGGAGUUCUACAGUCCGACGAUC … UGGAAUUCUCGGGUGCCAA
# Construct (chain): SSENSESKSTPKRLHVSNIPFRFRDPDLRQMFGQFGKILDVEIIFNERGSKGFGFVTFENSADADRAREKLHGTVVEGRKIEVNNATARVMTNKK
Oligonucleotide,RBNS enrichment (R)
AAACCCAUGUCUGCUUUCAGACAUCCCAGGGUGUUUCUCUCGAACAUGCCAUCUGGUGCCAAAUGAAAAUUCUUAGGAGUGAAUAUUAAUCAUGAAGGUCACAGUUGUGG,0.273
UGGCAUUUCCUUCAUAGAUAGACCUGGCCUGUCACCAGGAGUCCUACACUUCUGAAGUAUGAGCAAAGCUUAAGGUGAGUCUUGUGAUAUCUCUUUCACUUCCUCCCCAG,0.299
AUUUUUAAUGUGUACUGUAAAACUUGAAAUACUCAGGAGCUGAGUGAAUAUGUUUGUUGCUACUUACAAUCCCGACCUGUUAGUCCCAGUAGUUUUGUUUUAACAUGGUC,0.912
CUUCUAGAGCUGAGAAGCAGGGUCAAAGCACAAUACUGGGCAAUUCAGAGCAUGGUUAGAAGAGGAAAGGGGAGUCUCAAAGCUGGAGAGUUUACCAACAAAUAUUGACU,9.37
UCCUGGCCCUGCGUUCUUAAUAUUGGGCUAUGGAGAGAUCCUCCUUUACCCUCUUGAAAUUUCUUAGCCAGCAACUUGUUCUGCAGGGGCCCACUGAAGCAGAAGGUUUU,1.71
ACUACAUUAGUUUCCCUUUCUGAUUCUUAAUCUGUAGUUCUUUGUUAUAUUUCACAAAAAAAAAAAAUGUCUCGGUCACUACGCAAAGCUGCUAGUGGGGUUCUGUAUUU,0.647
AACAUGGGUGAUUACUUGCAGCCAUCCCAGGUGUUUUAGUUUUGCCAAGCUGACUGUGGUAUGUAGCCACUUCAGGGGUUGCGCUUCUCACUAGGUUGGCGGUACAUGUG,0.383
UUGACUCUGGUUCACAAUUUCGUACGUAGCUGGUUUGACGUAGAACUUUGUACUUCCCUUGCCGAAGUGAAUUGUUGAAGGCUGCAACCCACCCACCUUGAGUGUAGCAG,0.736

# Study 3 — method: protein binding microarray; form: double-stranded DNA, one strand shown; matrix: in vitro; tested at: not given; reference: not given; reading: higher = stronger binding
# Target: Histone acetyltransferase KAT6A, winged helix 2, GST fusion (KAT6A, Homo sapiens, UniProt Q92794, residues 85-181)
# Setting: 8-mer, flanks averaged, mean of 2 arrays, mostly near background
# Target sequence (chain): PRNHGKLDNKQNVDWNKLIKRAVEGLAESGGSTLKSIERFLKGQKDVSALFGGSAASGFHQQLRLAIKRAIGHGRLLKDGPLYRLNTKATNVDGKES
Oligonucleotide,E-score
CATACCAG,0.00464
ATCATAAA,-0.0109
AGAGTCGA,-0.166
GGTTGTAA,-0.0921
AGTACTCA,-0.0768
GCGTGACC,0.0829
GACGGAGA,0.0254

# Single results of other studies
Molecule,target,assay,system,setting,scale,endpoint,result
"PhoQ, residues 284 288 289 292 302 303 TASMAF","PhoP, residues 12 14 15 18 19 GQAIL (Escherichia coli, UniProt P23836)","Sort-seq, refers to: YFP reporter",E. coli,"PhoQ-PhoP variant library, together with: 10 µM Mg2+","reference: high Mg2+ state, higher = stronger signaling",fold induction,17.5

# Excerpt of the above (study 3):
Oligonucleotide,E-score
GGTTGTAA,-0.0921
CATACCAG,0.00464
